# Measurements gathered from unrelated publications.
# Protocols differ between the studies behind these lines.
SMILES,cell line,assay,setting,scale,quantity,value
C=C1C(=O)OC2C1CCC(C)(O)C13C=CC(C)(C21)C1(C3)C(=O)OC2C3C(C)C(=O)CC3C(=C)CC(OC(C)=O)C21 (stereo not drawn),AML12,"Western blot, measured: PGC-1α","concentration not given, together with: palmitate/oleate",,acetylation,decreased
CCOc1cncc(-c2ccc(NC(=O)C3(c4ccnc(NS(=O)(=O)C5CC5)n4)CCOCC3)nc2)n1,498,"cell growth, CellTiter-Glo",72 h,,IC50,10000 nM
CCN(CC)CC(=O)Nc1cccc(-n2cc(-c3ccc4ccc(-c5cn(-c6cccc(NC(=O)CN(CC)CC)c6)nn5)cc4c3)nn2)c1,RCC4,"PCR angiogenesis array, measured: FIGF","5 x IC50, 4 h, normoxia",reference: untreated,fold regulation,-1.47
CN1CCCNC(=O)c2cccc(c2)C(=O)NCCCN(C)CCCNc2cccc3c2C(=O)c2cccc(c2C3=O)NCCC1,SAS,"RNA-Seq, measured: GOLGA4 mRNA","1 µM, 6 h",reference: untreated cells,log2 fold change,-0.55
Cc1ncsc1-c1ccc(C(C)NC(=O)C2CC(O)CN2C(=O)C(NC(=O)CCCCCCCCCCN2CCCC(Nc3ncc(Cl)c(Nc4ccccc4S(=O)(=O)C(C)C)n3)C2)C(C)(C)C)cc1 (stereo not drawn),22Rv1,"RNA-seq, measured: RTL6 mRNA",concentration not given,reference: DMSO,log2 fold change,-1.27
CC(C)c1ccc(N(C)c2ccc3c(c2)OCC[C@H]3CNc2cnccc2C(=O)O)cc1,TOV112D,"cell growth or viability, ATP luminescence",7 days,,IC50,6.23 nM
CNS(=O)(=O)Nc1nccc(Cc2c(C)c3ccc(Oc4ncccc4F)cc3oc2=O)c1F,MOLP-8,cell viability,7 days,,IC50,22.8 nM
CO[C@@H]1[C@@H](OC(N)=O)[C@@H](O)[C@H](Oc2ccc3c(O)c(NC(=O)c4ccc(O)c(CC=C(C)C)c4)c(=O)oc3c2C)OC1(C)C,HCT-116 BRCA2 wild-type,,"200 µM, replicate B",reference: untreated,colony survival,43.2%
Cn1ncc2cc(-c3cncc(Cl)c3N3CCC4(CCNC4=O)CC3)ccc21,LS174T,"gene expression, microarray, measured: CNN1 mRNA","concentration not given, 4 h",reference: untreated cells,log2 fold change,1.36
